Assay results of several laboratories.
Parts stem from different laboratories: compare values within a part only. Changes are numbered by the printed parent chain.
Sequence of UniProt O00762 (whole entry, looked up): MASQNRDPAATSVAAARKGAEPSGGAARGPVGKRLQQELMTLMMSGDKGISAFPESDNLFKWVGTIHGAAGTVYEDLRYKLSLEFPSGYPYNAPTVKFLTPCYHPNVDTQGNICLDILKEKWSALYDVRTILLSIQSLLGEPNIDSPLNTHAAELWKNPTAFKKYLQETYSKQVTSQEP
Sequence of UniProt Q9H832 (whole entry, looked up): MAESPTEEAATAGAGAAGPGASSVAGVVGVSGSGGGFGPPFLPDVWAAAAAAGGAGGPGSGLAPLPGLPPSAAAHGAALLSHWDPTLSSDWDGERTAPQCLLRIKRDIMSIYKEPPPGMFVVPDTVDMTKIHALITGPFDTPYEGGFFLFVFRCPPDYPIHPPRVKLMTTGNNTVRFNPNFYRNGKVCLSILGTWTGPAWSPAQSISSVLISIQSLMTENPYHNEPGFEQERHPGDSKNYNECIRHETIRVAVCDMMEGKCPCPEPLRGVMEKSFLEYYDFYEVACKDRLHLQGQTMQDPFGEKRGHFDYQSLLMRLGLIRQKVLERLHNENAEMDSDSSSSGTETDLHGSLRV
Sequence of UniProt P63146 (whole entry, looked up): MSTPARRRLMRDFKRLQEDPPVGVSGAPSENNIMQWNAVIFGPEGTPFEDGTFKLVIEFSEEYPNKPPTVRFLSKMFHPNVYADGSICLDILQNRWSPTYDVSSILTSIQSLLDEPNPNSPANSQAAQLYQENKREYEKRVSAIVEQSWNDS
Sequence of UniProt Q9C0C9 (whole entry, looked up): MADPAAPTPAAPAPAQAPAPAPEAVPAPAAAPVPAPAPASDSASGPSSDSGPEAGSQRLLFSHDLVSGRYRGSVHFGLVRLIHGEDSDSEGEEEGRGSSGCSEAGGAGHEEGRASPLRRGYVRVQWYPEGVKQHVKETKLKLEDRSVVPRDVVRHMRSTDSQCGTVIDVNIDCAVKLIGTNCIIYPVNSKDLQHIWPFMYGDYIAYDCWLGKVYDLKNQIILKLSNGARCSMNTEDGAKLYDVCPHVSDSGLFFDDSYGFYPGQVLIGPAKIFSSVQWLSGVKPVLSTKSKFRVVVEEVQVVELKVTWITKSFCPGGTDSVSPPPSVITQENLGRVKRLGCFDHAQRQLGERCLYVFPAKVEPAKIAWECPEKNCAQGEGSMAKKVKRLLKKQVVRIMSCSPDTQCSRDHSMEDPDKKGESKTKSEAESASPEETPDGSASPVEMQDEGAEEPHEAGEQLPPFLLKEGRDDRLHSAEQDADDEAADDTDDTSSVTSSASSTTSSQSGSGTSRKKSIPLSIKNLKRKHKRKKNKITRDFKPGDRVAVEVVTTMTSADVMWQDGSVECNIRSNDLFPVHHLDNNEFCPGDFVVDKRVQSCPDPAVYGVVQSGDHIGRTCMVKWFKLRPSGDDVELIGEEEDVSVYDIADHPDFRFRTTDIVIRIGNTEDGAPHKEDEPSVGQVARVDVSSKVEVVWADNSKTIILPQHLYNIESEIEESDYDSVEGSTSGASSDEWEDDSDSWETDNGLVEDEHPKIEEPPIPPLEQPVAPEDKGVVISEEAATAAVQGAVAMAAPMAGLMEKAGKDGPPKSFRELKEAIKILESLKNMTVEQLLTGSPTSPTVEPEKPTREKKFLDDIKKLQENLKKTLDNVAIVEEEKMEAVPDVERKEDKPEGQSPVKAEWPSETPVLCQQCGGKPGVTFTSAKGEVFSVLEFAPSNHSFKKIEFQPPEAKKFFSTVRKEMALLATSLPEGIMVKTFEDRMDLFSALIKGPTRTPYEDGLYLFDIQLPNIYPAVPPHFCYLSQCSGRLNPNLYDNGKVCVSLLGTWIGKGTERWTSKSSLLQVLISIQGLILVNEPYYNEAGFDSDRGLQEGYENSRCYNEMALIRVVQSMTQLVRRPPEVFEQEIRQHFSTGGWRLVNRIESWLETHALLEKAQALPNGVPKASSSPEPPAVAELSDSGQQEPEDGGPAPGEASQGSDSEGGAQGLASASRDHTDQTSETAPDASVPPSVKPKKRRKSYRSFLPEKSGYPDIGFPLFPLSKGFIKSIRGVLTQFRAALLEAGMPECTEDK
Sequence of UniProt P51668 (whole entry, looked up): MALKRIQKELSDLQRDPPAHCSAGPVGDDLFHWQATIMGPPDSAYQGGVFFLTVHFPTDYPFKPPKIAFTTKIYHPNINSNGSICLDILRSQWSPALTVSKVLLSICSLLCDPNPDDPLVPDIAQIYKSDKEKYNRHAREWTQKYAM
Sequence of UniProt P61081 (whole entry, looked up): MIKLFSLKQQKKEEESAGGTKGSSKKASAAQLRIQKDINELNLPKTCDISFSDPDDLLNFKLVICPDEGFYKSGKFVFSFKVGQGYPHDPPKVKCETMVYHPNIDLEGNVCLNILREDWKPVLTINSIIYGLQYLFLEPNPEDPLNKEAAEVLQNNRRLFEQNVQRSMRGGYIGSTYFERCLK

Series 1
Sequence: B1 (RNF112 RING domain)
Method: yeast two-hybrid
Sample: yeast
Setting: mostly zero background
Relative to: not given
Reading: higher = stronger interaction
B1: RNF112 RING domain (UniProt Q9ULX5); chain QPMAPRELPTCSICLERLRDPISLDCGHDFCIRCFSTHRLPGCEPPCCPECRKICKQKRGLR
| target | lacZ reporter activity |
| --- | --- |
| UBE2M UBC core domain (UniProt P61081) | 0 |
| UBE2B UBC core domain (UniProt P63146) | 0 |
| UBE2D1 UBC core domain (UniProt P51668) | 0 |
| UBE2C UBC core domain (UniProt O00762) | 0 |
| UBE2O UBC core domain (UniProt Q9C0C9) | 0 |
| UBE2Z UBC core domain (UniProt Q9H832) | 0 |

Series 2
Target: CCND2, cyclin fold, Cln2 fusion (human)
Method: yeast growth competition, sequencing
Sample: yeast
Setting: weak parent motif
Relative to: not given
Reading: higher = stronger binding
Starting sequence: SCAPER docking peptide (human); SNARRSLNFGGST; partner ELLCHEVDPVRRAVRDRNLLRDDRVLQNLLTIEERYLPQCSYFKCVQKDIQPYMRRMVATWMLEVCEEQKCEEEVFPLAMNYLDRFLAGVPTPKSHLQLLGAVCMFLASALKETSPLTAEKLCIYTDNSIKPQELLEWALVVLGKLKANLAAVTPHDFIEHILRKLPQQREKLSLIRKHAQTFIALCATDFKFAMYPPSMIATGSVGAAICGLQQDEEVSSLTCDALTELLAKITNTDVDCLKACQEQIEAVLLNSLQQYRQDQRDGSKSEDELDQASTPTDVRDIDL
| Change | normalised enrichment score |
| --- | --- |
| SNARRSLNFGGSW [T13W] | 0.356 |
| SNARRSLNFGCST [G11C] | 0.644 |
| SNARRSLNFLGST [G10L] | 0.265 |
| SNARRTLNFGGST [S6T] | 0.399 |
| SNARRSLNFCGST [G10C] | 0.126 |
| SNARRSLNFGKST [G11K] | 0.394 |
| SNARRSLNFEGST [G10E] | 0.698 |
| SNARRSLHFGGST [N8H] | 0.48 |
| FNARRSLNFGGST [S1F] | 0.977 |
| SNARRSLNFGVST [G11V] | 0.749 |
| SNARASLNFGGST [R5A] | 0.00767 |
| SCARRSLNFGGST [N2C] | 0.00469 |
| SNARSSLNFGGST [R5S] | 0.391 |
| CNARRSLNFGGST [S1C] | 0.662 |
| SNARRSLNFGPST [G11P] | 0.141 |
| SNARRSLNFGGSC [T13C] | 0.545 |

Series 3
Target: RNA binding protein fox-1 homolog 2, RRM domain, GST-SBP tag (RBFOX2, Homo sapiens, UniProt O43251-10, residues 100-194)
Method: RNA Bind-n-Seq
Form: RNA
Sample: in vitro
Concentration: 365 nM
Setting: natural RNA segment, single round, ends assumed
Relative to: no-protein control
Reading: higher = stronger binding
Constant ends, left off below: GGGAGUUCUACAGUCCGACGAUC … UGGAAUUCUCGGGUGCCAA
Residues (chain): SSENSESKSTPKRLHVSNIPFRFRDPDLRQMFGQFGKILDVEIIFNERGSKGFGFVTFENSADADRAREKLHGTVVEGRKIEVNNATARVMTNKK
| Strand | RBNS enrichment (R) |
| --- | --- |
| GACUUGUUUACUCAUUGAAGCAGAUUUCUGCUUCCUUUUAUUUUUAUAGGAAUAGAGGAAGAAAUGUCAGAUGCGUGCCCAGCUCUUCACCCCCCAAUCUCUUGGUGGGG | 0.421 |
| UCAGGUCAGGUGGCCCACCACCCUCUGGAAGCCAGGUGCCCACCCCACCUCCAGCUCUGCUGGCAAUCUCCCUCCCCCAAGGCAAACUGGCCAGCAGGAGUGCUUCACAG | 0.301 |
| AUGUUUUGUUUCCUUUCCUUUGUUUUUUCUUUUAACUGGAAUAAUUACCAUUGAAAAAGAAGUUCCUUUGAGCAUGUAUGUGUCUGCCUCUAGGAUGAGCUCAGAGCGAG | 1.14 |
| AAAGUUAACUUAUGUGACUUGGCAGUUAUUCUAUACCAUUUCCUGUCCAUUAAAAUUUUUAAAGGAACGGUUGUAUUUUAUUAUGUUUUAUGUGACCUUUUGGCCUUUAA | 0.615 |
| GUUCUGCUGCCCCUGAUGCUCAUGGGUCUGUCCCGGGGAAAGAGGCAAGCAGGAGGCUGAGCCAGGAGCGAGGGGUAGAAAGUGGUGGUGUGGAACAGGCUUCUGUUUGU | 0.913 |
| CCCAAGAGAAGAGUGUACCAUGCACGUCUGCACCCCAGGCCCUUCCUGAGUCUUCAGGUGCACACAGCCUUCUUGUGGAGCUACUUUUGCAAAUAUUACAAGGUGGGGGG | 0.696 |
| UAGGCUGCCUCAUCACGCCACUGGAGUCCACACUUGAAUUUGGGCAGCUACCACGGGUCUGCCAUGCUCUGGAGGAGCAAGGGGGCCACAUCCCCACCCCAGCUGUUACC | 0.372 |
| AAAUUUUGGAAUCCUCUAAACAUUUUUGUAUCUUUAAUUGGUUUAUUAUUAAAUAAAUCAUAUAAAAUUCUCAGUGUCUGUUUUCAGGCAAAAGUUUCUUAAAGAAUAAG | 0.604 |

Series 4
Target: Interferon regulatory factor 5, full length, phosphomimetic (IRF5, Homo sapiens, UniProt Q13568-2, residues 1-514, S451D/S453D/S456D/S462D)
Method: protein-binding microarray
Form: double-stranded DNA, one strand shown
Sample: in vitro
Concentration: 940 nM top
Setting: 60-bp whole probe
Together with: salmon DNA 0.4 mg/ml
Relative to: random background probes
Reading: higher = stronger binding
Constant ends, left off below: GCCTAGCAC … GTCTTGATTCGCTTGACGCTGCTG
| Strand | fitted relative affinity [z-score] |
| --- | --- |
| TCATTTTTCCCCTGCACACTGTGCTAG | 1.51 |
| CTGCCTTCAGAGCTGTCTGTGTGCTAG | -0.22 |
| GACGGTCTCGGTATGGGGACGTGCTAG | 3.94 |
| TCATATGTATATATGTGACTGTGCTAG | -0.398 |
| TCATCTCTTTCCTTCTTACTGTGCTAG | 2.17 |
| TCATTTTTTTTTTTACTACTGTGCTAG | 1.41 |
| GACGGCTCCGGTTTCGGGACGTGCTAG | 3.22 |
| TTAGGTGTCGACTTTCGGTTAGTGCTA | 3.07 |
| GACGGTACCGGTCTCGGGACGTGCTAG | 1.3 |
| TCAGGTTTGTACACCGCACTGTGCTAG | -0.294 |
| TCAGGTGTTCTTTTCTGACTGTGCTAG | 0.67 |
| GACGATATCAGAGTGGAGACGTGCTAG | -0.536 |
| TGAGGTATCGGGTATCGGTTAGTGCTA | 5.52 |
| TTAGAGCTCAGTTTCGATTAGTGCTAG | 7.96 |
| CTCCTAATAAATATGAGACTGTGCTAG | 0.281 |
| GACGGTCTCGGTATCTGGACGTGCTAG | 3.59 |
| TTAGATCTCAGACTGGACTAGTGCTAG | -0.239 |
| TTCGATTTCGGGTTTCGATTAGTGCTA | 6.39 |
| AACGATTTCAGTTCCGAGACGTGCTAG | 0.832 |

Some of these lines once more (series 4):
| Strand | fitted relative affinity [z-score] |
| --- | --- |
| TCAGGTTTGTACACCGCACTGTGCTAG | -0.294 |
| GACGATATCAGAGTGGAGACGTGCTAG | -0.536 |
| TCAGGTGTTCTTTTCTGACTGTGCTAG | 0.67 |
| TCATCTCTTTCCTTCTTACTGTGCTAG | 2.17 |
| TTCGATTTCGGGTTTCGATTAGTGCTA | 6.39 |
| CTCCTAATAAATATGAGACTGTGCTAG | 0.281 |
| TTAGATCTCAGACTGGACTAGTGCTAG | -0.239 |
| GACGGTCTCGGTATCTGGACGTGCTAG | 3.59 |
